{"data": "Published values gathered from unrelated publications", "note": "Each line is one published result; not all experiments were run side by side. ± gives the spread as reported."}
{"Compound": "COc1cc2c3cc(OC)c(OC)cc3c3c[n+]4c(cc3c2cc1OC)CCC4", "system": "swine cells", "setting": "24 (unit not given)", "endpoint": "CC50", "result": "> 100 µM"}
{"Compound": "C/C=C/C=C/C/C=C/CCCCCCCc1cccc(O)c1O", "system": "female Kunming mice, tumour-bearing, heart", "setting": "intravenous, 10 mg/kg, 4 h", "endpoint": "tissue concentration", "result": "5930 ± 870 ng/g"}
{"Compound": "CSCC[C@@H]1NC(=O)[C@@H]2CSSC[C@H](NC(=O)[C@H](CO)NC(=O)[C@H](C)N)C(=O)N[C@@H](CCCNC(=N)N)C(=O)N[C@@H]([C@@H](C)O)C(=O)N3CCC[C@H]3C(=O)N[C@@H](CCCCN)C(=O)N[C@@H](CC(=O)O)C(=O)N[C@H]3CSSC[C@H](NC(=O)[C@H](CCCCN)NC(=O)[C@H](CCCNC(=N)N)NC(=O)[C@H](CC(N)=O)NC1=O)C(=O)N[C@@H](CCCCN)C(=O)N[C@H]1CSSC[C@H](NC(=O)[C@@H]4CCCN4C(=O)[C@H](CC(=O)O)NC(=O)[C@H](C)NC3=O)C(=O)N[C@@H](C)C(=O)N[C@@H](CCCCN)C(=O)N[C@@H](CCC(=O)O)C(=O)N[C@@H]([C@@H](C)O)C(=O)NCC(=O)N[C@@H](CSSC[C@@H](C(N)=O)NC(=O)[C@H](CCCNC(=N)N)NC(=O)[C@H](CC(N)=O)NC1=O)C(=O)N1CCC[C@H]1C(=O)N[C@@H](Cc1ccc(O)cc1)C(=O)NCC(=O)N[C@@H](CCCCN)C(=O)N2", "system": "DA rat, pristane-induced arthritis, serum", "setting": "subcutaneous, 0.1 mg/kg every other day, end of 21-day trial", "endpoint": "LDH", "result": "640 U/L"}
{"Compound": "CCCCCCCCCCCCC(=O)O.O=C1CCCC2C3CCCN4CCCC(CN12)C34 (stereo not drawn)", "assay": "electrical conductivity", "system": "water", "setting": "308.15 K, critical micelle concentration", "endpoint": "standard entropy of micellization", "result": "107 J/(mol·K)"}
{"Compound": "CC[C@H](C)[C@H](NC(=O)[C@H](C)NC(=O)[C@H](CCCNC(=N)N)NC(=O)CNC(=O)CNC(=O)[C@H](CCCNC(=N)N)NC(=O)[C@H](CCCNC(=N)N)NC(=O)[C@H](CCCNC(=N)N)NC(=O)[C@H](CCC(N)=O)NC(=O)[C@H](CCCNC(=N)N)NC(=O)[C@H](CCCNC(=N)N)NC(=O)[C@H](CCCCN)NC(=O)[C@H](CCCCN)NC(=O)[C@H](CCCNC(=N)N)NC(=O)CNC(=O)[C@@H](N)Cc1ccc(O)cc1)C(=O)N[C@H](C(=O)N[C@H](C(=O)N[C@@H](CC(C)C)C(=O)N[C@@H](CC(=O)O)C(=O)N[C@H](C(=O)N[C@@H](CCC(=O)O)C(=O)N[C@@H](CCCCN)C(=O)N[C@@H](CO)C(=O)O)[C@@H](C)O)[C@@H](C)CC)[C@@H](C)O", "system": "rat, TRPV1 knockout, myocardial infarction", "setting": "dose not given, 2 h reperfusion", "endpoint": "rectal body temperature", "result": "37 ± 0.1 °C"}
{"Compound": "COc1cc2ncnc(Oc3cccc(N[11C](=O)Nc4cc(C(C)(C)C(F)(F)F)on4)c3)c2cc1OC", "system": "female Balb/c nude mice, plasma", "setting": "intravenous, 30 min", "how to read": "baseline: radioactivity", "endpoint": "intact fraction", "result": "12.2 ± 0.45%"}
{"Compound": "[2H]C([2H])([2H])C([2H])([2H])C([2H])([2H])OC(C(=O)OC1CCNCC1)(c1ccccc1)c1ccccc1", "assay": "measured: vomiting", "system": "healthy Japanese male", "setting": "oral, 10 mg, 16 days, multiple ascending dose", "endpoint": "adverse drug reactions", "result": "0%"}
{"Compound": "CCCC[C@H]1C(=O)N(C)[C@@H](CCCC)C(=O)N[C@@H](CCCNC(=O)CN2CCN(CC(=O)O)CCN(CC(=O)O)CCN(CC(=O)O)CC2)C(=O)N[C@H](C(=O)NCC(N)=O)CSCC(=O)N[C@@H](Cc2ccc(O)cc2)C(=O)N(C)[C@@H](C)C(=O)N[C@@H](CC(N)=O)C(=O)N2CCC[C@H]2C(=O)N[C@@H](Cc2c[nH]cn2)C(=O)N[C@@H](CC(C)C)C(=O)N(C)CC(=O)N[C@@H](Cc2c[nH]c3ccccc23)C(=O)N[C@@H](CO)C(=O)N[C@@H](Cc2c[nH]c3ccccc23)C(=O)N1C [gallium-68 labelled]", "assay": "static PET", "system": "NOD/SCID mice, CHO-hPD-L1 xenograft, CHO-hPD-L1 tumour", "setting": "intravenous, 60 min post injection", "endpoint": "tumour uptake", "result": "5.8 ± 0.36 %ID/g"}
{"Compound": "C[C@H]1N=C(c2ccccc2F)c2cc(Br)ccc2-n2cnc(C(=O)OC3O[C@H](C(=O)O)[C@@H](O)[C@H](O)[C@H]3O)c21 (stereo partly drawn)", "assay": "LC-MS/MS", "system": "Swiss Webster mouse, female, urine", "setting": "intraperitoneal, 750 µg parent drug, 24 to 48 h", "endpoint": "cumulative excretion", "result": "0.3 ± 0.2%"}
{"Compound": "CC(C)C[C@H](NC(=O)[C@H](CCCCN)NC(=O)[C@H](CCC(=O)O)NC(=O)[C@H](C)NC(=O)[C@@H](NC(=O)[C@H](CCCCN)NC(=O)[C@H](CC(=O)O)NC(=O)[C@H](Cc1ccc(O)cc1)NC(=O)[C@H](Cc1ccccc1)NC(=O)[C@H](C)NC(=O)[C@H](CCCCN)NC(=O)[C@H](CC(C)C)NC(=O)[C@H](Cc1c[nH]c2ccccc12)NC(=O)[C@@H](N)CC(=O)O)C(C)C)C(=O)N[C@@H](CCCCN)C(=O)N[C@@H](CCC(=O)O)C(=O)N[C@@H](C)C(=O)N[C@@H](Cc1ccccc1)C(=O)N1CCC[C@H]1C(=O)N[C@@H](CC(=O)O)C(=O)N[C@@H](Cc1c[nH]c2ccccc12)C(=O)N[C@@H](C)C(=O)N[C@@H](CCCCN)C(=O)N[C@@H](C)C(=O)N[C@@H](C)C(=O)N[C@@H](Cc1ccc(O)cc1)C(=O)N[C@@H](CC(=O)O)C(=O)N[C@@H](CCCCN)C(=O)N[C@@H](C)C(=O)N[C@@H](C)C(=O)N[C@@H](CCC(=O)O)C(=O)N[C@@H](CCCCN)C(=O)N[C@@H](C)C(=O)N[C@@H](CCCCN)C(=O)N[C@@H](CCC(=O)O)C(=O)N[C@@H](C)C(=O)N[C@@H](C)C(=O)O", "system": "cynomolgus monkey female, plasma", "setting": "intravenous infusion, 8 mg/kg every other day, day 27", "endpoint": "volume of distribution at steady state", "result": "0.054 L/kg"}
{"Compound": "CN(C)C(CNC(=O)Nc1cc(C(F)(F)F)ccc1N1CCOCC1)c1ccncc1 (stereo not drawn)", "system": "mouse, serum", "setting": "intraperitoneal, 180 mg/kg single dose", "endpoint": "serum ALT", "result": "80 U/L"}
{"Compound": "COc1ccc(NC(=O)Cn2c(=O)c3ccccc3n(CC(=O)Nc3cc([125I])c(OC)cc3OC)c2=O)cc1", "system": "rat, intestine", "setting": "intravenous, 5 min", "endpoint": "tracer uptake", "result": "1.09 %ID/g"}
{"Compound": "CC(C)C[C@@H](N)C(=O)NCC(=O)N[C@H](C)C(=O)N[C@H](CO)C(=O)N[C@H](Cc1c[nH]c2ccccc12)C(=O)N[C@H](Cc1c[nH]cn1)C(=O)N[C@H](CCCNC(=N)N)C(=O)N1CCC[C@@H]1C(=O)N[C@H](CC(=O)O)C(=O)N[C@H](CCCCN)C(=O)N[C@H](CS)C(=O)N[C@H](CS)C(=O)N[C@H](CC(C)C)C(=O)NCC(=O)N[C@H](Cc1ccc(O)cc1)C(=O)N[C@H](CCC(N)=O)C(=O)N[C@H](CCCCN)C(=O)N[C@H](CCCNC(=N)N)C(=O)N1CCC[C@@H]1C(=O)N[C@H](CC(C)C)C(=O)N1CCC[C@@H]1C(N)=O", "assay": "LC-MS/MS", "system": "rat plasma extract", "setting": "500 ng/mL, 4 h, 8 °C, autosampler storage", "endpoint": "measured concentration", "result": "486 ± 4.6 ng/mL"}
{"Compound": "Cc1ccc(OCC(=O)N(Cc2cccs2)c2ccn[nH]2)cc1", "system": "pregnant Crl:CD(SD) rat", "setting": "oral, 125 mg/kg/day", "endpoint": "fetal body weight", "result": "5.7 g"}
{"Compound": "[3H]c1sc(C)nc1C=C(C)C1CC2C(CCCC(C)C(O)C(C)C(=O)C(C)(C)C(O)CC(=O)O1)N2CCO (stereo not drawn)", "system": "CD2F1 mice, plasma", "setting": "intravenous, 2.2 nmol/kg, 6 h", "endpoint": "plasma concentration", "result": "30.2 ± 7.7 ng/mL"}
{"Compound": "O=C(c1ccc(F)cc1)C1CCN(C2Cc3c(cccc3OCC[18F])CC2O)CC1 (single isomer, unassigned; (-))", "system": "Sprague-Dawley rat, male, heart", "setting": "intravenous, dose not given, 30 min", "endpoint": "tissue uptake", "result": "0.39 ± 0.031 %ID/g"}
{"Compound": "CC(CCC(=O)NCC(=O)O)C1CCC2C3C(O)CC4CC(OC5OC(C(=O)O)C(O)C(O)C5O)CCC4(C)C3CCC12C (stereo not drawn)", "system": "human, SLCO1B1 *14/*35, plasma", "setting": "geometric mean, sex-adjusted", "endpoint": "plasma concentration", "result": "12.9 ng/mL"}
{"Compound": "CC[C@H](C)C(=O)N1CCC(NC(=O)Nc2ccc(OC(F)(F)F)c(F)c2)CC1", "system": "healthy volunteers, both sexes", "setting": "oral, 8 mg, fasted state", "endpoint": "subjects with urinary tract infection", "result": "7.7%"}
{"Compound": "COC(=O)C[C@](O)(CCCC(C)(C)OC(C)=O)C(=O)O[C@@H]1C(OC)=C[C@]23CCCN2CCc2cc4c(cc2[C@H]13)OCO4", "system": "CD1 mouse, plasma", "setting": "oral, 1 mg/kg, 8 h", "endpoint": "concentration", "result": "10 ng/mL"}
{"Compound": "O=c1cc(-c2ccccc2)oc2c(Br)c(O)c(O)c(O)c12", "system": "C57BL/6 mouse, plasma", "setting": "oral, 50 mg/kg, single dose", "endpoint": "half-life", "result": "4.6 h"}
{"Compound": "CCN(CC)CCOc1ccc(-c2nnn(Cc3ccc(OC)cc3)c2N)cc1", "system": "cynomolgus monkeys, plasma", "setting": "120 min", "endpoint": "stability", "result": "stable"}
{"Compound": "CN1C(=O)C2(Cc3ccc(CC45SSC(CO)(C(=O)N4C)N(C)C5=O)cc3)SSC1(CO)C(=O)N2C (racemic)", "assay": "LC-MS", "system": "solution", "setting": "concentration not given, added: DTT 100 µM", "endpoint": "reduced fraction", "result": "> 90%"}
{"Compound": "CC(C)[C@H](NC(=O)CNC(=O)[C@H](CCC(N)=O)NC(=O)[C@H](C)N)C(=O)O", "system": "healthy male volunteers", "setting": "intravenous, 90 mg/kg/h, 2 h, added: LPS 2 ng/kg", "endpoint": "subjects with severe AE", "result": "0%"}
{"Compound": "CC[C@H](C)[C@H](NC(=O)[C@H](CCCN)NC(=O)[C@H](CC(N)=O)NC(=O)[C@H](Cc1c[nH]c2ccccc12)NC(=O)[C@H](Cc1ccccc1)NC(=O)[C@H](CCCN)NC(=O)[C@H](CCCCNC(=N)N)NC(=O)[C@H](CC(C)C)NC(=O)[C@H](Cc1c[nH]c2ccccc12)NC(=O)[C@H](CCCN)NC(=O)[C@H](CCCCNC(=N)N)NC(=O)[C@H](CC(C)C)NC(=O)CNC(C)=O)C(=O)N[C@@H](CCCN)C(=O)N[C@@H](CCCCNC(=N)N)C(N)=O", "system": "Kunming mice", "setting": "intravenous, 20 mg/kg, 5 days", "endpoint": "survival", "result": "33%"}
{"note": "A few entries again:"}
{"Compound": "CCN(CC)CCOc1ccc(-c2nnn(Cc3ccc(OC)cc3)c2N)cc1", "system": "cynomolgus monkeys, plasma", "setting": "120 min", "endpoint": "stability", "result": "stable"}
{"Compound": "CC(C)C[C@H](NC(=O)[C@H](CCCCN)NC(=O)[C@H](CCC(=O)O)NC(=O)[C@H](C)NC(=O)[C@@H](NC(=O)[C@H](CCCCN)NC(=O)[C@H](CC(=O)O)NC(=O)[C@H](Cc1ccc(O)cc1)NC(=O)[C@H](Cc1ccccc1)NC(=O)[C@H](C)NC(=O)[C@H](CCCCN)NC(=O)[C@H](CC(C)C)NC(=O)[C@H](Cc1c[nH]c2ccccc12)NC(=O)[C@@H](N)CC(=O)O)C(C)C)C(=O)N[C@@H](CCCCN)C(=O)N[C@@H](CCC(=O)O)C(=O)N[C@@H](C)C(=O)N[C@@H](Cc1ccccc1)C(=O)N1CCC[C@H]1C(=O)N[C@@H](CC(=O)O)C(=O)N[C@@H](Cc1c[nH]c2ccccc12)C(=O)N[C@@H](C)C(=O)N[C@@H](CCCCN)C(=O)N[C@@H](C)C(=O)N[C@@H](C)C(=O)N[C@@H](Cc1ccc(O)cc1)C(=O)N[C@@H](CC(=O)O)C(=O)N[C@@H](CCCCN)C(=O)N[C@@H](C)C(=O)N[C@@H](C)C(=O)N[C@@H](CCC(=O)O)C(=O)N[C@@H](CCCCN)C(=O)N[C@@H](C)C(=O)N[C@@H](CCCCN)C(=O)N[C@@H](CCC(=O)O)C(=O)N[C@@H](C)C(=O)N[C@@H](C)C(=O)O", "system": "cynomolgus monkey female, plasma", "setting": "intravenous infusion, 8 mg/kg every other day, day 27", "endpoint": "volume of distribution at steady state", "result": "0.054 L/kg"}
{"Compound": "CC[C@H](C)C(=O)N1CCC(NC(=O)Nc2ccc(OC(F)(F)F)c(F)c2)CC1", "system": "healthy volunteers, both sexes", "setting": "oral, 8 mg, fasted state", "endpoint": "subjects with urinary tract infection", "result": "7.7%"}
